# Measurements pooled from the literature.
# Lines come from different studies, so protocols differ. “And” joins repeats or separate records; there may be more than shown.
# ADRA2C: Alpha-2C adrenergic receptor (ADRA2C, Homo sapiens, UniProt P18825)
# UniProt P18825, sequence (whole entry, looked up): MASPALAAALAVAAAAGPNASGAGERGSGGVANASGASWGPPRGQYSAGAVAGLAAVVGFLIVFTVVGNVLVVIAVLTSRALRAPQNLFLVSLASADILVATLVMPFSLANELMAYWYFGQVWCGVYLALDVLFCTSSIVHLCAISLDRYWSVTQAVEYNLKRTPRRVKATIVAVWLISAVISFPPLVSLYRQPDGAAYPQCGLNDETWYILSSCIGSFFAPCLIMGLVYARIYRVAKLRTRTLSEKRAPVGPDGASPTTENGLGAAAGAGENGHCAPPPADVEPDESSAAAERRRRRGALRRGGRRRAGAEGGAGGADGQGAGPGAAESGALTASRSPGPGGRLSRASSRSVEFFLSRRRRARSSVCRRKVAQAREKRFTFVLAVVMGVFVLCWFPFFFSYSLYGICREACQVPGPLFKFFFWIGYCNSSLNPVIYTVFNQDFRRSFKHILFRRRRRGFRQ
# Tspo: Translocator protein (Tspo, Rattus norvegicus, UniProt P16257)
# UniProt P16257, sequence (whole entry, looked up): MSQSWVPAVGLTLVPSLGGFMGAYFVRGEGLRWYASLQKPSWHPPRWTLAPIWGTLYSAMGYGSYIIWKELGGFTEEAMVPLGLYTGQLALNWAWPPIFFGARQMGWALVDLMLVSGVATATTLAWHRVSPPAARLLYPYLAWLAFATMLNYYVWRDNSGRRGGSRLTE
# HDAC8: Histone deacetylase 8 (HDAC8, Homo sapiens, UniProt Q9BY41)
# UniProt Q9BY41, sequence (whole entry, looked up): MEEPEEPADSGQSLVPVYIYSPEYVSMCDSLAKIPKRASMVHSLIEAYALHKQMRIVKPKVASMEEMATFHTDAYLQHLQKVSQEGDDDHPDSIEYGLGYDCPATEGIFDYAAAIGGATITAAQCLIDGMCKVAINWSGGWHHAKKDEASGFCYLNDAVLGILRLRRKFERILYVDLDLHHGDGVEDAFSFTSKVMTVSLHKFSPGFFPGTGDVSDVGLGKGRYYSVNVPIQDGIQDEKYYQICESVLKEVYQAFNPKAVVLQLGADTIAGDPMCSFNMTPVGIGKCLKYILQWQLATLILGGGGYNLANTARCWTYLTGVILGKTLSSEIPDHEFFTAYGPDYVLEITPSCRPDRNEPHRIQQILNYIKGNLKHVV
# AKT1: RAC-alpha serine/threonine-protein kinase (AKT1, Homo sapiens, UniProt P31749)
# UniProt P31749, sequence (whole entry, looked up): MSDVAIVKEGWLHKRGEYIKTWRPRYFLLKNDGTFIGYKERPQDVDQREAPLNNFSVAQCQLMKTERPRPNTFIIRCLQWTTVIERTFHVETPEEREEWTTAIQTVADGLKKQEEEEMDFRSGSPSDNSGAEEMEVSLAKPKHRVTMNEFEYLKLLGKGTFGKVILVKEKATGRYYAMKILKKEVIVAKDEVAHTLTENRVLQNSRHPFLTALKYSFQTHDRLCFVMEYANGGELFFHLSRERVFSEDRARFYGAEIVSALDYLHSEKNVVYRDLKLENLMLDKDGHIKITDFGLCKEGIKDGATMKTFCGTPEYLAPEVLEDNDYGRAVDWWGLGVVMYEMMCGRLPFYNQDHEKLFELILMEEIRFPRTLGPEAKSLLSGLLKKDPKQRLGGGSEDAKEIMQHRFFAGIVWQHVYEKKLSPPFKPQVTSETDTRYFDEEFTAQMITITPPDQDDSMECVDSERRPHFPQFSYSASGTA
# Replicase polyprotein 1ab main protease: Replicase polyprotein 1ab, main protease (Feline coronavirus, UniProt Q98VG9)
# HTR2C: 5-hydroxytryptamine receptor 2C (HTR2C, Homo sapiens, UniProt P28335)
# UniProt P28335, sequence (whole entry, looked up): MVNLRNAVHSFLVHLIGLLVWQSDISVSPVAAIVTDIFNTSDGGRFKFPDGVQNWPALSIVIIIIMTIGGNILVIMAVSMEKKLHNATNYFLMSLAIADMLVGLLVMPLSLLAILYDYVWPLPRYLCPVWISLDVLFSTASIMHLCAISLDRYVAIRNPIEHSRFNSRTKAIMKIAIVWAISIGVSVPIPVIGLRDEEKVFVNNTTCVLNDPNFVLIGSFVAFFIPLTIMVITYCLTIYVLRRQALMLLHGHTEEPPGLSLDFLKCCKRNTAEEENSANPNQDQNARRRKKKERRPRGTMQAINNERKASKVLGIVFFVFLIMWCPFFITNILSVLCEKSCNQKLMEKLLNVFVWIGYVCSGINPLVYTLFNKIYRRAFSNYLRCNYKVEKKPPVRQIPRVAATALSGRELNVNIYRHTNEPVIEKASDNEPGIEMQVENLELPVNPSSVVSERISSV
# HDAC6: Protein deacetylase HDAC6 (HDAC6, Homo sapiens, UniProt Q9UBN7)
# UniProt Q9UBN7, sequence (whole entry, looked up): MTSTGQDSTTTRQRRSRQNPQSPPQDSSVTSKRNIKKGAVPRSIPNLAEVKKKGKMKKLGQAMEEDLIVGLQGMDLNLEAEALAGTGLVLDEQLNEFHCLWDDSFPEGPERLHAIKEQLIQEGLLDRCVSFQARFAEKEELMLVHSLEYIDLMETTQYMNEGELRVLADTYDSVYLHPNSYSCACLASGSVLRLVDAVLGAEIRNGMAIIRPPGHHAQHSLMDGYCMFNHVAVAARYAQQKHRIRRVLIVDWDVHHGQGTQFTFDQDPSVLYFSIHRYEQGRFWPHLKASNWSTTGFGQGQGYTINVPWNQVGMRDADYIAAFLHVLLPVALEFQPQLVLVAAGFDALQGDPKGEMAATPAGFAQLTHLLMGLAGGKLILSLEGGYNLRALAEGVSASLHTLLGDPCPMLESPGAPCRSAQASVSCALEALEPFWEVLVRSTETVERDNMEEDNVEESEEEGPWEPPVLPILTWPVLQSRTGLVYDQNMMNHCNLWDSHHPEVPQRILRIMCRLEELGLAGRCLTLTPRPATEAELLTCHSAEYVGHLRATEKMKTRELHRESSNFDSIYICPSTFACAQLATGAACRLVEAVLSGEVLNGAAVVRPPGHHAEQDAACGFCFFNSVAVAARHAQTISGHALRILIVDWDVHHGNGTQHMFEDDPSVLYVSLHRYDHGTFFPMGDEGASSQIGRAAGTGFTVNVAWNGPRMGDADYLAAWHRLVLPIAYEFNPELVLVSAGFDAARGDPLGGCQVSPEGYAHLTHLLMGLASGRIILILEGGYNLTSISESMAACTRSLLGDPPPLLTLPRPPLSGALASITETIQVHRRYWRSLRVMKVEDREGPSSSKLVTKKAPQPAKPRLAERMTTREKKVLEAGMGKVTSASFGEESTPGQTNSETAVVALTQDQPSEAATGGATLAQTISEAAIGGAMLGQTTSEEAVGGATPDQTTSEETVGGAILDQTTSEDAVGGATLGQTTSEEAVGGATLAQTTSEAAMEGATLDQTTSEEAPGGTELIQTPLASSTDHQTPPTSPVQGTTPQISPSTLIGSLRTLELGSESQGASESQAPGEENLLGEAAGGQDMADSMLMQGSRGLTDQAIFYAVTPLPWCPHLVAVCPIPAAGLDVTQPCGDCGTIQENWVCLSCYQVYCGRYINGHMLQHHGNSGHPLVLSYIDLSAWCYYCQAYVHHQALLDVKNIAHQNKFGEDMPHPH
# ADRA2B: Alpha-2B adrenergic receptor (ADRA2B, Homo sapiens, UniProt P18089)
# UniProt P18089, sequence (whole entry, looked up): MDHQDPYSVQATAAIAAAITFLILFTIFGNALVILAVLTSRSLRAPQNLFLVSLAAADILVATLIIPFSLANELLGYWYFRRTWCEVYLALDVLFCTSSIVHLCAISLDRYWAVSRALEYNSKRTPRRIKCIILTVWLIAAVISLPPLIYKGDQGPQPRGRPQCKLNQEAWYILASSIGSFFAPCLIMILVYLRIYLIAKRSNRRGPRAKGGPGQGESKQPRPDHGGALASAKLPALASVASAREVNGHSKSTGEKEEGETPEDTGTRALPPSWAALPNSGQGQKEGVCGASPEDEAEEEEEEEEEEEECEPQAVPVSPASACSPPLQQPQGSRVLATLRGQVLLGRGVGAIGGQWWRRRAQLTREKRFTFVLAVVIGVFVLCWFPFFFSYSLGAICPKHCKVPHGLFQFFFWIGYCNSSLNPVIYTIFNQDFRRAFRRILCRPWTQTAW
# OSBP: Oxysterol-binding protein 1 (OSBP, Homo sapiens, UniProt P22059)
# UniProt Q5BJF2, sequence (whole entry, looked up): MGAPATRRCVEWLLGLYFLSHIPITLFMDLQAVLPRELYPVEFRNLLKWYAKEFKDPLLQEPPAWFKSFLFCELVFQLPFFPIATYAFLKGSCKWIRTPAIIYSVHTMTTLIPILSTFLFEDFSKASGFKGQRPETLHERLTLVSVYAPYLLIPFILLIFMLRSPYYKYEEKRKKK
# UniProt P22059, sequence (whole entry, looked up): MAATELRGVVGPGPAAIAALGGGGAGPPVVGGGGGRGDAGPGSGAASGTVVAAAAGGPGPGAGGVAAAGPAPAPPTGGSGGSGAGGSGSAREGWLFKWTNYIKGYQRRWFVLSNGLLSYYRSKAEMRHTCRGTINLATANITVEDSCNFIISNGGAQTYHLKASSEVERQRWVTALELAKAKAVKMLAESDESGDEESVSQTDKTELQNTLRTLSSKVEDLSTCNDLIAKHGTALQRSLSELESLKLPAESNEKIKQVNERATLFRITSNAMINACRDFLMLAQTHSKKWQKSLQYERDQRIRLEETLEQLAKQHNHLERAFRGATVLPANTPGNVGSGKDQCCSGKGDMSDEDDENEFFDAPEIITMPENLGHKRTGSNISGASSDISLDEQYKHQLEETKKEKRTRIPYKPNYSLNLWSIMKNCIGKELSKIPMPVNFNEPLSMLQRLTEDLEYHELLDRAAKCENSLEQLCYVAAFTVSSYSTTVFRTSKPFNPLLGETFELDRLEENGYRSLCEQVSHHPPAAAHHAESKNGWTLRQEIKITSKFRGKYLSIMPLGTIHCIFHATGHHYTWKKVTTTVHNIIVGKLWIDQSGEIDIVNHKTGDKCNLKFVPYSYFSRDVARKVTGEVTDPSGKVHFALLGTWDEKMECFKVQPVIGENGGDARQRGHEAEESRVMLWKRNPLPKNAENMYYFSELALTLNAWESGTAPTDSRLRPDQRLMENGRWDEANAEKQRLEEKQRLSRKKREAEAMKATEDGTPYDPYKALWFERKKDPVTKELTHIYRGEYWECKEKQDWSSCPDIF
# UniProt P35462, sequence (whole entry, looked up): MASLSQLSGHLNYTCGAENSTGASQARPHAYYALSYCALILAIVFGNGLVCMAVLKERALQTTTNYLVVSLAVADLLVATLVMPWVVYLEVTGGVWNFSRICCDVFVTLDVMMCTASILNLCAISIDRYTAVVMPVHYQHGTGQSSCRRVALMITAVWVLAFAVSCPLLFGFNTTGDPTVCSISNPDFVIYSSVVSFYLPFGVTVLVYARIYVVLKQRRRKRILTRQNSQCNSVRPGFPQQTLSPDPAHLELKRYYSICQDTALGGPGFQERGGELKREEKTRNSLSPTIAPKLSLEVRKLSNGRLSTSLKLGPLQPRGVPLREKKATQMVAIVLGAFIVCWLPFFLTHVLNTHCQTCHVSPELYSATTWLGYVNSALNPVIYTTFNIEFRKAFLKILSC
Compound,target,assay,test system,setting,endpoint,value
Cc1cc(Oc2ncccc2CN2CCN(CCc3ccccc3)CC2)ccc1-c1c(C)c(=O)[nH]c(=O)n1C,ADRA2C,"ligand displacement, radioligand",,,Ki,0.151 µM
CNc1nc(C#Cc2ccc(Cl)s2)nc2c1ncn2[C@H]1[C@H](O)[C@H](O)[C@]2(C(=O)OC)C[C@H]12,Tspo,"ligand displacement, radioligand",,,Ki,> 10 µM
Cc1cc(OS(=O)(=O)Oc2ccc(-n3ccnc3)cc2)cc(C(=O)NO)c1,HDAC8,"enzyme activity, inhibitor, fluorescence",,,Ki,1.34 µM
Cc1nn(C)cc1S(=O)(=O)NC(=O)c1ccc(-n2ccc(OCC(C)(C)C(F)(F)F)n2)nc1N1C[C@@H](C)CC1(C)C,"Bile salt export pump (ABCB11, Homo sapiens, UniProt O95342)","transporter uptake, inhibitor",HEK293,,Ki,37.1 µM
Cc1cc(Oc2ncccc2CN2CCN(c3ccc(C(F)(F)F)cn3)CC2)ccc1-c1c(C)c(=O)[nH]c(=O)n1C,ADRA2C,"ligand displacement, radioligand",,,Ki,0.277 µM
Cc1[nH]c(C)c(S(=O)(=O)Nc2ccc(C(F)(F)F)c(Cl)c2)c1C(=O)N1CCC(O)C1 (stereo not shown),"D(3) dopamine receptor (DRD3, Homo sapiens, UniProt P35462)","β-arrestin recruitment, antagonist",,,IC50,14.8 µM
Cc1cc(Oc2ncccc2CN2CCN(c3cccc(Cl)c3)CC2)ccc1-c1c(C)c(=O)[nH]c(=O)n1C,ADRA2C,"ligand displacement, radioligand",,,Ki,0.0194 µM
CCOc1ccc(-c2cc(C(=O)O)c(-c3ccc(Cl)cc3)o2)cc1,AKT1,"ligand displacement, FP",,,Ki,6.6 µM
Cc1ccc(S(=O)(=O)N/N=C\C=C\c2ccccc2)cc1,Replicase polyprotein 1ab main protease,"enzyme activity, inhibitor, fluorescence",,,Ki,48.8 µM
O=C1CCc2ccccc2O1,"Carbonic anhydrase 12 (CA12, Homo sapiens, UniProt O43570)","enzyme activity, inhibitor, stopped-flow",,,Ki,2.8 µM
CC/C=C\C[C@H](O)/C=C/C=C\C/C=C\C=C\[C@@H](O)C/C=C\CCC(=O)O,"Prostaglandin E2 receptor EP4 subtype (PTGER4, Homo sapiens, UniProt P35408)","ligand displacement, radioligand",,cell membranes,Ki,1.3 µM
CC(C)c1ccc(OS(=O)(=O)Oc2cccc(C(=O)NO)c2)cc1,HDAC8,"enzyme activity, inhibitor, fluorescence",,,Ki,0.829 µM
N#C[C@@]12C[C@@H]1[C@@H](n1cnc3c(N[C@H](C4CCC4)C4CC4)nc(I)nc31)[C@H](O)[C@@H]2O,HTR2C,"ligand displacement, radioligand",,,Ki,0.085 µM
O=C(NO)c1cccc(OS(=O)(=O)Oc2ccc3ccccc3c2)c1,HDAC8,"enzyme activity, inhibitor, fluorescence",,,Ki,0.055 µM
CNC(=O)[C@H]1O[C@@H](n2cnc3c(NC)nc(C#Cc4ccc(Cl)s4)nc32)[C@H](O)[C@@H]1O,Tspo,"ligand displacement, radioligand",,,Ki,> 10 µM
O=C(NO)c1cncc(OS(=O)(=O)Oc2ccc(-n3ccnc3)cc2)c1,HDAC6,"enzyme activity, inhibitor, fluorescence",,,Ki,0.028 µM
COc1ccc(CN2CC(COc3ccc(F)cc3)CC(F)(F)C2)cc1F (stereo not shown),"D(4) dopamine receptor (DRD4, Homo sapiens, UniProt P21917)","ligand displacement, radioligand",,cell membranes,Ki,0.14 µM
CNc1ncc2c(/C=C/C(=O)N3CCC(OC)CC3)nn(Cc3cccc(C(F)(F)F)c3)c2n1,"Phosphorylase b kinase gamma catalytic chain, liver/testis isoform (PHKG2, Homo sapiens, UniProt P15735)","enzyme activity, inhibitor, radiometric",,1 µM,remaining activity,81%
N#C[C@@]12C[C@@H]1[C@@H](n1cnc3c(NCc4cccc(Cl)c4)nc(I)nc31)[C@H](O)[C@@H]2O,HTR2C,"ligand displacement, radioligand",,,Ki,0.0391 µM
Cc1cc(Oc2ncccc2CN2CCN(c3ncccc3C(F)(F)F)CC2)ccc1-c1c(C)c(=O)[nH]c(=O)n1C,ADRA2B,"ligand displacement, radioligand",,,Ki,0.029 µM
COc1cc(-c2cncc3c2CN(C)Cc2cc(N4CCNCC4)ccc2-3)cc(OC)c1OC,"Serine/threonine-protein kinase 17B (STK17B, Homo sapiens, UniProt O94768)","enzyme activity, inhibitor",,1 µM,remaining activity,111%
C#CCOc1cccc(C(=O)CC(SCc2cccc(Br)c2)C(=O)O)c1 (stereo not shown),OSBP,"ligand displacement, FP",,,Ki,117 µM
O=c1cc(-c2ccc(O)c(O)c2)oc2cc(O[C@@H]3O[C@H](CO)[C@@H](O)[C@H](O)[C@H]3O)cc(O)c12,"L-lactate dehydrogenase A chain (LDHA, Homo sapiens, UniProt P00338)","enzyme activity, inhibitor",,,Ki,68 µM
CCOC(=O)c1cc(-c2ccc(OCC)cc2)oc1-c1ccc(Cl)cc1,OSBP,"ligand displacement, FP",,,Ki,> 100 µM
O=C(NO)c1cncc(OS(=O)(=O)Oc2ccc(C(F)(F)F)cc2)c1,"Histone deacetylase 5 (HDAC5, Homo sapiens, UniProt Q9UQL6)","enzyme activity, inhibitor, fluorescence",,,Ki,1.97 µM
Cc1cc(Oc2ncccc2CN2CCN(Cc3ccc(F)cc3)CC2)ccc1-c1c(C)c(=O)[nH]c(=O)n1C,ADRA2B,"ligand displacement, radioligand",,,Ki,0.293 µM
CCOc1cccc(C(=O)CC(SCc2ccc(Cl)cc2)C(=O)O)c1 (stereo not shown),OSBP,"ligand displacement, FP",,,Ki,116 µM
O=C(/C=C/c1cccc(OS(=O)(=O)Oc2ccccc2)c1)NO,HDAC6,"enzyme activity, inhibitor, fluorescence",,,Ki,0.273 µM
OC[C@@]12C[C@@H]1[C@@H](n1cnc3c(NCCCCCCc4ccccc4)nc(I)nc31)[C@H](O)[C@@H]2O,"Sodium-dependent serotonin transporter (SLC6A4, Homo sapiens, UniProt P31645)","ligand displacement, radioligand",,,Ki,2.5 µM
Cc1cc(OCCCS(C)(=O)=O)cc(C)c1-c1cccc(COc2ccc3c(c2)OC[C@H]3CC(=O)O)c1,"Hepatic sodium/bile acid cotransporter (SLC10A1, Homo sapiens, UniProt Q14973)","transporter uptake, inhibitor",,,Ki,7.77 µM
Cc1cc(Oc2ncccc2CN2CCN(c3ccccc3C(F)(F)F)CC2)ccc1-c1c(C)c(=O)[nH]c(=O)n1C,ADRA2B,"ligand displacement, radioligand",,,Ki,0.107 µM
CCOc1ccc(C(=O)CC(SCc2cccc(Br)c2)C(=O)O)cc1 (stereo not shown),OSBP,"ligand displacement, FP",,,Ki,99 µM
O=C1C(=O)N(Cc2ccc(Cc3ccc(CN4C(=O)C(=O)c5ccccc54)cc3)cc2)c2ccccc21,Replicase polyprotein 1ab main protease,"enzyme activity, inhibitor, fluorescence",,,Ki,5.86 µM
C#CCN(CCCN1CCN(C2CCCCC2)CC1)Cc1ccc(C(=O)c2ccc([N+](=O)[O-])cc2)cc1,"Sigma intracellular receptor 2 (TMEM97, Homo sapiens, UniProt Q5BJF2)","ligand displacement, radioligand",,cell membranes,Ki,0.0038 µM and 0.00378 µM and < 0.005 µM
CCCOC(=O)[C@@]12C[C@@H]1[C@@H](n1cnc3c(NC)nc(C#Cc4ccc(Cl)s4)nc31)[C@H](O)[C@@H]2O,"Delta-type opioid receptor (OPRD1, Homo sapiens, UniProt P41143)","ligand displacement, radioligand",,,Ki,> 10 µM
COc1ccccc1N1CCN(Cc2cccnc2Oc2ccc(-c3c(C)c(=O)[nH]c(=O)n3C)c(C)c2)CC1,ADRA2C,"ligand displacement, radioligand",,,Ki,~0.011 µM and 0.0106 µM
Cc1ccc2[nH]c(=O)c(CNC3CCCCC3)cc2c1,"Alpha-1A adrenergic receptor (ADRA1A, Homo sapiens, UniProt P35348)",ligand displacement in cells,,,Ki,0.468 µM
COc1ccccc1C(=O)CC(SCc1ccc(Cl)cc1)C(=O)O (stereo not shown),OSBP,"ligand displacement, FP",,,Ki,330 µM
Cc1cc(Oc2ncccc2CN2CCN(c3cccc(C)c3C)CC2)ccc1-c1c(C)c(=O)[nH]c(=O)n1C,ADRA2C,"ligand displacement, radioligand",,,Ki,0.0061 µM and 0.006 µM
CCOc1ccc(C(=O)CC(SCc2ccc(F)cc2)C(=O)O)cc1 (stereo not shown),OSBP,"ligand displacement, FP",,,Ki,236 µM
Cc1cc(OS(=O)(=O)Oc2ccccc2)cc(C(=O)NO)c1,HDAC8,"enzyme activity, inhibitor, fluorescence",,,Ki,3.99 µM
CCOc1ccc(C(=O)CC(SCc2ccc(Cl)cc2)C(=O)O)cc1OCC (stereo not shown),AKT1,"ligand displacement, FP",,,Ki,250 µM
O=C(NO)c1cc(F)cc(OS(=O)(=O)Oc2ccc(C(F)(F)F)cc2)c1,HDAC6,"enzyme activity, inhibitor, fluorescence",,,Ki,0.251 µM
